# Measured values pooled from the literature.
# Each numbered part is a random draw from the data of one study; scales do not carry over between parts. Changes are numbered by the printed parent chain.
# Chain of UniProt Q96PY6 (whole entry, looked up): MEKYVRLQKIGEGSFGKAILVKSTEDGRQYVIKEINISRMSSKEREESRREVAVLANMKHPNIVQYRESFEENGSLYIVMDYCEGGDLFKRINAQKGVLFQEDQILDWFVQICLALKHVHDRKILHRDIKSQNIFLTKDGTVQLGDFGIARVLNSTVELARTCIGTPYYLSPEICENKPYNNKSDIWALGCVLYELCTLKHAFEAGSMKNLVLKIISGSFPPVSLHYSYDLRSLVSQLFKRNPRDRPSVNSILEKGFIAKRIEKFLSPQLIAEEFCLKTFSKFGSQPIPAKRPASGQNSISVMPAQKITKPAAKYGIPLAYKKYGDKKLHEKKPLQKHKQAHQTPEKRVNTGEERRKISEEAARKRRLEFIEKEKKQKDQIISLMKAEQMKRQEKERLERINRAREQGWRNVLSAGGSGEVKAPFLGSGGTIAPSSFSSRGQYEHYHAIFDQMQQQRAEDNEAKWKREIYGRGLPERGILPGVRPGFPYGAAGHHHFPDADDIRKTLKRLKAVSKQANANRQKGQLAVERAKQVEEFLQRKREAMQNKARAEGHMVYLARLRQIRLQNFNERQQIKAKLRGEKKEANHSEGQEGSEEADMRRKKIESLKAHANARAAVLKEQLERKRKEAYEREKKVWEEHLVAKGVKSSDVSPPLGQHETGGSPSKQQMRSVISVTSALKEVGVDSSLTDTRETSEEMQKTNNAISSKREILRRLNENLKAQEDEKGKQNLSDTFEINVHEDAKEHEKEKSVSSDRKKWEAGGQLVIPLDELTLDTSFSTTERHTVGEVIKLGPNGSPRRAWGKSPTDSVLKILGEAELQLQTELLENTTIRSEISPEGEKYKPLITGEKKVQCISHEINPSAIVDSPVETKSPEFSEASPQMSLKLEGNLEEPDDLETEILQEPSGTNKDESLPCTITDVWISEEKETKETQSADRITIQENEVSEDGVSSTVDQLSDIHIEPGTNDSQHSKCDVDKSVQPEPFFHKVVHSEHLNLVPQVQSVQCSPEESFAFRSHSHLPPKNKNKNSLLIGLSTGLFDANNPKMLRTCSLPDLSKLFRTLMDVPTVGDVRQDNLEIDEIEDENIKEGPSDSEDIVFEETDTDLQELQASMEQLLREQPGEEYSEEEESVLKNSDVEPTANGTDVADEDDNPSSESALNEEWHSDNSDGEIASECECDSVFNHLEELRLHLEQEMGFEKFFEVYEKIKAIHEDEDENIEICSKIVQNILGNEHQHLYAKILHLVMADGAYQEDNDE
# Chain of UniProt P11362 (whole entry, looked up): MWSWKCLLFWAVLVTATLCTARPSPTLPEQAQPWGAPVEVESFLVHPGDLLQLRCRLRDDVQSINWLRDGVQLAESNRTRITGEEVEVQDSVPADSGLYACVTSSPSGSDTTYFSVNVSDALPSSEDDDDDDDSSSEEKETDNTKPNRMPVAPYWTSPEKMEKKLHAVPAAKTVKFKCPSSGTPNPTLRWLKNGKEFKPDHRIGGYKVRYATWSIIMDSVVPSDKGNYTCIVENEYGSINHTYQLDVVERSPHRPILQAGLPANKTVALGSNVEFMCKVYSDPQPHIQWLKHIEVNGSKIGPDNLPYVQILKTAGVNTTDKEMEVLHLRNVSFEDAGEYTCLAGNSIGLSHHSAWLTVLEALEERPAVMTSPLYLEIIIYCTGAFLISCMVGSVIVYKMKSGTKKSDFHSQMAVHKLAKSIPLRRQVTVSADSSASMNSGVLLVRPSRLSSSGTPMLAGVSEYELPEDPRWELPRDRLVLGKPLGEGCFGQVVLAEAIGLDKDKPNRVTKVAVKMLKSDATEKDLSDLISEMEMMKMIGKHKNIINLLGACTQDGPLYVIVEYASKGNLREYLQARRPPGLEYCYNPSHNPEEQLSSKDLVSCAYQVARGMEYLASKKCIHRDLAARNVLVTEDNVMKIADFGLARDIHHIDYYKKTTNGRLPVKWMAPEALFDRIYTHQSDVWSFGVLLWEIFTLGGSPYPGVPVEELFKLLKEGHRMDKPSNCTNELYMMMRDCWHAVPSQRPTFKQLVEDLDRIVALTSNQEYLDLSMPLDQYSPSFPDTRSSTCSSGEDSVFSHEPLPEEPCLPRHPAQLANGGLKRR
# Chain of UniProt Q99640 (whole entry, looked up): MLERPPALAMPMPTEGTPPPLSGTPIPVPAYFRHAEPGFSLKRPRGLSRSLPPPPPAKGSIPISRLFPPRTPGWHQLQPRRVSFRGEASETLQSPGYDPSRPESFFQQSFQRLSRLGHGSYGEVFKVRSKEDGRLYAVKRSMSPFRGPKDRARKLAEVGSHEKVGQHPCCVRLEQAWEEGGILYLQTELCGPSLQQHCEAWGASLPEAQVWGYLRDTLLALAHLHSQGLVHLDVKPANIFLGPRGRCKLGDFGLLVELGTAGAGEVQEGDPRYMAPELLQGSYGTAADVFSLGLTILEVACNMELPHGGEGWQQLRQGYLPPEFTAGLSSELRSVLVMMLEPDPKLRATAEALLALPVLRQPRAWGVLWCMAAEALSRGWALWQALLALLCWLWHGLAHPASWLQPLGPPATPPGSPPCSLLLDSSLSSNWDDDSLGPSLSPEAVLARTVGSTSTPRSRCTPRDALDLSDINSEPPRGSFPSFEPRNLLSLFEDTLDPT
# Chain of UniProt P42336 (whole entry, unmodified, looked up): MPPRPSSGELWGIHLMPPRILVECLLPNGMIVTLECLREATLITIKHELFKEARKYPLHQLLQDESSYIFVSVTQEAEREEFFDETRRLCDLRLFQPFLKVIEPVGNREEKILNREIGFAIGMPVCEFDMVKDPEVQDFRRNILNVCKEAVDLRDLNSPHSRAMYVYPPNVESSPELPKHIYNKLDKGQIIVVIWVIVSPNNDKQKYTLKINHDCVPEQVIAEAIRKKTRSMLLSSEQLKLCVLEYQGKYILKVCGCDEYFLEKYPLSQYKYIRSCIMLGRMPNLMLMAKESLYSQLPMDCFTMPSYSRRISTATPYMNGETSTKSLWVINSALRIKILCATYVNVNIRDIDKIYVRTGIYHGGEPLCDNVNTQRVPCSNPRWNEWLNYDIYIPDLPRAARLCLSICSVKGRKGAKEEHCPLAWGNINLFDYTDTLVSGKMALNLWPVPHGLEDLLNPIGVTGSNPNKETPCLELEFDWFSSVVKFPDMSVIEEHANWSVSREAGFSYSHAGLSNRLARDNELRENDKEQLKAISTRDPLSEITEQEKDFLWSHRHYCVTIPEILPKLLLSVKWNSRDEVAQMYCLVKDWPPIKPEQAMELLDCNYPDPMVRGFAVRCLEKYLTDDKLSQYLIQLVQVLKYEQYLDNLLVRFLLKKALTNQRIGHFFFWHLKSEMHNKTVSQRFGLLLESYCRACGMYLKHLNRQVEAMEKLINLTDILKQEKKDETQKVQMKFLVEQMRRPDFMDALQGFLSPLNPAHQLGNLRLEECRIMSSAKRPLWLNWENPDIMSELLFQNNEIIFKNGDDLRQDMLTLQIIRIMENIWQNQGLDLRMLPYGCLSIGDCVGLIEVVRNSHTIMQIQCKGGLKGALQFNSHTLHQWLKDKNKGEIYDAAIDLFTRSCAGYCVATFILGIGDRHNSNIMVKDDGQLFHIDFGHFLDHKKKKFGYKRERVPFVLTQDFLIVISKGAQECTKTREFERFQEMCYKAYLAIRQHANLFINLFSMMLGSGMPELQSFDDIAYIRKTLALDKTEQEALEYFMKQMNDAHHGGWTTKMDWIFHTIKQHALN
# Chain of UniProt P23458 (whole entry, looked up): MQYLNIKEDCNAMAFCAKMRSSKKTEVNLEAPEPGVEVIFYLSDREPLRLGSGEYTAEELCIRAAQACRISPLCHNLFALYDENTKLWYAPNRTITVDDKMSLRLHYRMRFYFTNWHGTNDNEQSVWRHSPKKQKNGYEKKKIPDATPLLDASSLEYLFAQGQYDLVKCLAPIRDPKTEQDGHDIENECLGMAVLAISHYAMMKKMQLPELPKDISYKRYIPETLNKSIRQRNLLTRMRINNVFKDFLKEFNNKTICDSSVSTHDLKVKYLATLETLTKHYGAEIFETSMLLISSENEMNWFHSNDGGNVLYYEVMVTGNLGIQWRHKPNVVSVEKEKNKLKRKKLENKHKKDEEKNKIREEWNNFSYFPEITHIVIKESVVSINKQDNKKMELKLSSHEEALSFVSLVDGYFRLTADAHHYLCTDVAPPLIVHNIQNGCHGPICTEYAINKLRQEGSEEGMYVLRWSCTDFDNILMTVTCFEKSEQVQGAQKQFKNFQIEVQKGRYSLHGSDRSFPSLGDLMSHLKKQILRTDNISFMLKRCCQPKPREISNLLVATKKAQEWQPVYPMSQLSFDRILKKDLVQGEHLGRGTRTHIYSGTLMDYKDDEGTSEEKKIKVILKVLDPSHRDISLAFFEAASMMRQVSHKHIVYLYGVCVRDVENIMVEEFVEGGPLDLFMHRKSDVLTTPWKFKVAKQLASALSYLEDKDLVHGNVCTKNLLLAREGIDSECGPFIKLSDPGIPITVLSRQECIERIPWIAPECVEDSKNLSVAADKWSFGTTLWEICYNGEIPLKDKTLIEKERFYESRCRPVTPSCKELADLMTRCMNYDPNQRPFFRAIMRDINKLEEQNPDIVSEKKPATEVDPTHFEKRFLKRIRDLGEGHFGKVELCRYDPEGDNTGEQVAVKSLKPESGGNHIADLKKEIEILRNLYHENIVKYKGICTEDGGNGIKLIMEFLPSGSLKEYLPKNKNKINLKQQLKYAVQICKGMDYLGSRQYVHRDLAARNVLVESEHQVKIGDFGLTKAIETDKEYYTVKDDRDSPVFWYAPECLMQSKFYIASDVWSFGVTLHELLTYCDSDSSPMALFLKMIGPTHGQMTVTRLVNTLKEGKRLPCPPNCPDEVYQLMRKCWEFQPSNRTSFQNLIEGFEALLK

# Block 1 — observed: cell-free assay; technique: competition with immobilised ligand; concentration: 1 µM
# SMILES: COc1ccc2c(O[C@@H]3C[C@H]4C(=O)N[C@]5(C(=O)O)CC5/C=C\CCCCC[C@H](NC(=O)OC5CCCC5)C(=O)N4C3)cc(-c3csc(NC(=O)C(C)C)n3)nc2c1C (stereo partly shown)
target,remaining binding
"Insulin-like growth factor 1 receptor (IGF1R, Homo sapiens, UniProt P08069)",98%
"Focal adhesion kinase 1 (PTK2, Homo sapiens, UniProt Q05397)",99%
"Phosphatidylinositol 4,5-bisphosphate 3-kinase catalytic subunit alpha isoform (PIK3CA, Homo sapiens, UniProt P42336, H1047L)",79%
"Membrane-associated tyrosine- and threonine-specific cdc2-inhibitory kinase (PKMYT1, Homo sapiens, UniProt Q99640)",100%
"Tyrosine-protein kinase JAK1, JH2 (JAK1, Homo sapiens, UniProt P23458)",75%

# Block 2 — technique: aptamer microarray, sandwich; molecule type: DNA with 2'F-ANA; matrix: in vitro; concentration: 200 nM; together with: Cy3 exosite-II aptamer, 400 nM; reading: higher = stronger binding; strand: GGTTGGTGTGGTTGG
# Target: Prothrombin, mature alpha-thrombin (F2, Homo sapiens, UniProt P00734)
# Setting: whole 15-mer aptamer, many near background
Modification,mean fluorescence intensity [a.u.]
2'F-ANA at 1 2 4 6 8 10 11 12,55.3
2'F-ANA at 1 2 3 4 8 9 10 11 13 15,57.4
2'F-ANA at 8 12 14,291
2'F-ANA at 1 2 4 6 11 12 13 14 15,66.6
2'F-ANA at 1 3 6 13,230
2'F-ANA at 3 4 5 6 7 8 11,101
2'F-ANA at 2 3 5 8 10 11 12 13 14 15,62.2
2'F-ANA at 1 3 6 9 12 14 15,108

# Block 3 — technique: DHFR PCA, dose-response; matrix: yeast; setting: Hill fit, mean, not affinity; together with: (+)-ABA, dose series; reading: lower = more sensitive
# Target: ABI1, truncated, D143A, DHFR fusion (Arabidopsis thaliana, UniProt P49597)
# Parent: PYL1, truncated, DHFR fusion (Arabidopsis thaliana, UniProt Q8VZS8); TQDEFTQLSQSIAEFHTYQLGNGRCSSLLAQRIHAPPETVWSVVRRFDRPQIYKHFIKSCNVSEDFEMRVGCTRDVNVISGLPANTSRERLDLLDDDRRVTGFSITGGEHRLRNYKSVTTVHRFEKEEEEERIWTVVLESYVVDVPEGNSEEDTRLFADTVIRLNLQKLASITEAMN
Substitution,ABA EC50 [µM]
K116D,748
V43T,23.9
Y53M,105
T73N,11.2
K58N,8.83
L8H,12.6
R99G,25.9
H16R,583

# Block 4 — observed: enzyme activity; action: inhibitor; concentration: 0.5 µM; baseline: control
# Compound: CN(C)S(=O)(=O)c1ccc2c(c1)/C(=C/c1cc3c([nH]1)CCCC3)C(=O)N2
target,remaining activity [%]
"Serine/threonine-protein kinase ULK3 (ULK3, Homo sapiens, UniProt Q6PHR2)",26.3
"Fibroblast growth factor receptor 1 (FGFR1, Homo sapiens, UniProt P11362)",71.4
"Rhodopsin kinase GRK7 (GRK7, Homo sapiens, UniProt Q8WTQ7)",82.3
"Serine/threonine-protein kinase Nek1 (NEK1, Homo sapiens, UniProt Q96PY6)",93.1

# For quick reference, copied from above (block 2):
Modification,mean fluorescence intensity [a.u.]
2'F-ANA at 1 3 6 13,230
2'F-ANA at 3 4 5 6 7 8 11,101
2'F-ANA at 2 3 5 8 10 11 12 13 14 15,62.2
